Measurements from different studies.
A part holds a random share of what one study measured.

Study 1
Target: Sal-like protein 4, full length isoform B (SALL4, Homo sapiens, UniProt Q9UJQ4-2, residues 1-616)
Technique: universal PBM
Form: double-stranded DNA, one strand shown
Sample: in vitro
Tested at: not given
Notes: 8-mer, flanks averaged, mean of replicates
Reading: higher = stronger binding
Oligonucleotide	E-score
CGGGCAGA	-0.214
AGAAGAGC	-0.00351
GGCGTCAC	-0.213
GCCCACGC	-0.329
CTAGTCCC	-0.167
CCGTAGGC	-0.219
ACCATACC	-0.0698
CTGCGTAA	0.0481
GAAGAGCC	-0.239
CGTCGGAG	-0.189
CGCGTCGA	-0.189
ATTGTTAA	0.349
GACAAACC	-0.0535
CGTGCGGC	-0.205
ACCGCGTG	-0.312
ACAGTATG	0.135
ATGCGGTG	-0.239
CTTCACTA	0.144
AGCCCGTG	-0.351
GGAAACAC	-0.0917

Study 2
Target: Histone acetyltransferase KAT6A, winged helix 2, GST fusion (KAT6A, Homo sapiens, UniProt Q92794, residues 85-181)
Technique: protein binding microarray
Form: double-stranded DNA, one strand shown
Sample: in vitro
Tested at: not given
Notes: 8-mer, flanks averaged, mean of 2 arrays, mostly near background
Relative to: not given
Reading: higher = stronger binding
Construct (chain): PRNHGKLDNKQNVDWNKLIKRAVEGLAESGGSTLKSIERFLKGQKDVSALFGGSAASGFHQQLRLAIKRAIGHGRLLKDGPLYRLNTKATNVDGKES
Oligonucleotide	E-score
AAGTTCAT	0.0353
ATTCCATC	0.0827
ACCAGTCC	-0.206
GGGAGTAC	-0.111
GGCGCGAC	0.31
GGATGGCC	0.116
CGTAGACC	-0.136
ACCGGGAC	-0.0184
CTCGACAG	0.00683
CCGCCAAG	0.0004
AATTCTAG	-0.0092
AGAATGTG	-0.142
ATTATCTA	0.146
ATGTCGGA	0.0137
CGCTTGTC	0.07
GCTTTATA	-0.136
GAATACGA	0.0731
GATCCGAA	0.0467
CACACTCG	0.0822
AATGGTCC	-0.0345
GCGCACGC	0.122

Study 3
Target: Fragile X messenger ribonucleoprotein 1, C-terminal low-complexity region (Fmr1, Mus musculus, UniProt P35922)
Technique: RNA Bind-n-Seq
Form: RNA
Sample: in vitro
Tested at: 200 nM
Notes: whole 134-nt RNA, ends assumed
Added: 150 mM LiCl
Relative to: input library
Reading: higher = stronger binding
Library: 7-deaza-guanosine replaces G
Constant ends, left off below: GGGAGUUCUACAGUCCGACGAUC … UGGAAUUCUCGGGUGUCAAGG
Oligonucleotide	log2 enrichment
UCAAGUCCUGUGCUACACAUCGUAUGUACCGAAUCGGGUUUUUGGGAGGGAGGGAAAGUAUUAUGUUACGCCGUUCGGAUCUGCACUUCC	-1.79
UGGCCCUGGUGGCAUGCGGGGAGGAAGAGGUGGCCUCAUGGAUCGUCGUGGUCCCGGUGGAAUGUUCAGAGGUGGCCGUGGUGGAGACAG	0.691
UGGCCCUGGUGGCAUGCGGGGAGGAAGAGGUGGCCUCAUGGAUCGUGGUGGUCCCGGUGGCAUGUUCAGAGGUGGCCGUGGUGGAGACAG	-1.24
CUCAAGUCCUGUGCUACACAUCGUAUGUACCGAAUCGGGAAAGGGUGGGAGGGAAAGUAUUAUGUUACGCCGUUCGGAUCUGCACUUCCA	-0.351
CAAGUCCUGUGCUACACAUCGUAUGUACCGAAUCGGUGGAAAAAGGUUUUUUUGGAAAGUAUUAUGUUACGCCGUUCGGAUCUGCACUUC	-1.83
CCUGUGCUACACAUCGUAUGUACCGAAUCAAAUUUUUUUAAAUUUUUAAACCCCCCCAAAAAAGUAUUAUGUUACGCCGUUCGGAUCUGC	1.51
CCUGUGCUACACAUCGUAUGUACCGAAUCGGGGAAAAAAAGGGGAAAGGGGAAAAAGGGGAAAGUAUUAUGUUACGCCGUUCGGAUCUGC	1.05
UGGCCCUGGUGGCAUGCGGGGAGGAAGAGGUGGCCUCAUGGAUCGUGGUGGUCGCGGUGGAAUGUUCAGAGGUGGCCGUGGUGGAGACAG	0.211

Study 4
Target: RING finger protein unkempt homolog, zinc fingers 1-6, GST-SBP tag (UNK, Homo sapiens, UniProt Q9C0B0, residues 30-357)
UniProt Q9C0B0, sequence (30-357, looked up): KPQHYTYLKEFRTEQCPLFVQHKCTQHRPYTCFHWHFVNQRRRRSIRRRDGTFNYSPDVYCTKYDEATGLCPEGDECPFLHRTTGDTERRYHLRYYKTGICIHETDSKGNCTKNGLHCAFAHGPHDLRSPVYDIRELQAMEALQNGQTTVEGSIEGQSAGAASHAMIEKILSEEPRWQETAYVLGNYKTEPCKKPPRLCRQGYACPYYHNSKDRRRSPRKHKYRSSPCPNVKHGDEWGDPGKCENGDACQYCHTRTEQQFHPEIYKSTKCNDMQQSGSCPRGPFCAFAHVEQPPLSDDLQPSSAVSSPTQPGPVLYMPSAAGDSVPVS
Technique: RNA Bind-n-Seq
Form: RNA
Sample: in vitro
Tested at: not given
Notes: RNA with constant flanks, human-mouse chimeric sites, ends assumed
Relative to: input RNA pool
Reading: higher = stronger binding
Constant ends, left off below: GGGAGUUCUACAGUCCGACGAUC … CAACAGAGGAUUGAGCAUCA
Oligonucleotide	bound/input enrichment [ratio]
UCUUAACGUCCAUUUAAAACUUAUUUUUAUAGCUAGAUAAAUAUUGUUAGUCUUAGACAAUAGCUCACAUUUUUUGAGAAGCAUGCCCUCCCUGUCCAUUGGGCCCAUAACAUGACCCAG	92.2
AGAAUCUUGGGACUGUUUUACUUAAUUGGUCAUUGAUAUCUCAACAAACAUGGAGAUAAGAUUAGAAAUCUUGACAUCAACAAGUAUUAAGCAGAAAAAACCAUGGCCACGUGUCUCCUG	0.13
GCAGGAUCUUCUAAGUACCAGUGGGACAUUAUGAAAUCCCUUGGGCUCUCUGAUGACGACAUAGUGAAAUUUUCUGAAGCAGAGCACUGGCUUGAUUAUUUCCCACCACUGGCCGUUCAG	0.296
CACACACUCUUCUGCGGGACCCUCAUCCUGCAGGCCCGGGCCUAUGUGGGACCGCACGUGCUAGCAGUGGUGACCCGCACAGGGUUCUGCACGGCAAAAGGGGGCCUGGUGAGCUCCAUC	0.101
AGUUCCAAACCACCAUCAGAAAUGAAGAUGAGAUUACCCAGACGAGCCAAAACAGCUGCGCUACAGAAAAAGUAAACUAACCUUGCAGAGUUCCUUAAUGAAGAUACAAGUUAAGAGAGC	0.253
GGCCUGGGACCGUCCUGGGCUAGUACAAAUAGCGGCAGUGGAGGCUCGAGAGGAAAGUUGUUAGUGGGAGGCAGUGGUAGAGGCCGUAUGUACGCUCCCUUUACUCGAUAGAUGUGUUCU	0.444
CACAGAGCAGCACCUACCUCCUCCUUCUUUCCACACCUGCAAACUCUUUUACUUGGGCUGAAUAUUUAGUGUAAUUAACAUCGCAGCUUGAGGGCUCCUGUGGCAAAUUCCCGGAUUAAA	1.12
GGAUCUUUGGGACUGUUUUACUUAAUUGGUCAUUGAUAGCUUAACAAGCAUGGAGAUAAGAUUAGAAAUCUUGACAUCAACAGGUAUUAAGCAGAAAAAACCAUGGCCACGUGUCUCCUG	0.194
CUGAGGAUACCACUGAAGAGACCUUAAAAGAAUCAUUUGAGGGCUCUGUUCGUGCAAAGGAUAGUUAUGAUCGGGAAACUGGUUCUUCCAAAGGGUUUUGGUUUUGUGACUUUAAUAGUG	0.376
AGCACAACCCCAGCAAAGCUAAGAAAUCCUUGUACAAGUGAACAAAACUGCACCAGCCCAUUUAGCUACAAAAAUGUGCUUAGUCUUACUAAUAAAGGAGAGUUUUUUAAUGAACUUGUU	0.723

Study 5
Target: Interferon regulatory factor 7, full length, phosphomimetic (IRF7, Homo sapiens, UniProt Q92985, residues 1-503, S471D/S472D/S475D/S476D/S477D/S483D/S484D/S487D)
Technique: protein-binding microarray
Form: double-stranded DNA, one strand shown
Sample: in vitro
Tested at: 2200 nM top
Notes: 60-bp whole probe
Added: salmon DNA 0.4 mg/ml
Relative to: random background probes
Reading: higher = stronger binding
Constant ends, left off below: GCCTAGCAC … GTCTTGATTCGCTTGACGCTGCTG
Target sequence (chain): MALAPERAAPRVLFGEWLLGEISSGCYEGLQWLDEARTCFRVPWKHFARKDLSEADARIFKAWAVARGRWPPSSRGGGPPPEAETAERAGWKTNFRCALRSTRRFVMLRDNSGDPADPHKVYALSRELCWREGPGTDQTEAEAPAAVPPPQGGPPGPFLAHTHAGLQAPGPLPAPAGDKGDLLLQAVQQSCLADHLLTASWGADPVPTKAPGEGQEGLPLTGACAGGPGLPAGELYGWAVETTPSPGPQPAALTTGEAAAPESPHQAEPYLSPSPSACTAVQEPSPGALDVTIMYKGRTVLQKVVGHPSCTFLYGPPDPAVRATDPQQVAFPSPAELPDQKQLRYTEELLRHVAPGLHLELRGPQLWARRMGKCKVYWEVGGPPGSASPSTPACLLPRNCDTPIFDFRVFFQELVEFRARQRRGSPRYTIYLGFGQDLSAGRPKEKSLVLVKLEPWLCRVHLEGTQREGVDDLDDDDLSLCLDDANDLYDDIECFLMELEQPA
Oligonucleotide	fitted relative affinity
GACGCTCTCCTTCTCCTGACGTGCTAG	1.47 z-score
TTAGATATCAGTTTCGAGTAGTGCTAG	3.57 z-score
GACGATTTCAGTTTCGATACGTGCTAG	7.3 z-score
TTAGATCTCAGACTGGATGAGTGCTAG	0.0591 z-score
GACGGTATCCGTTTCGGGACGTGCTAG	2 z-score
CCCTGGCTCCCTATAAAAGGGTGCTAG	-1.11 z-score
GACGAACTGGGGTTTCAAGACGTGCTA	0.00521 z-score
TCACCTATCAGTTTAATACTGTGCTAG	1.45 z-score
TCATTTTCATTGTTTTTCACTGTGCTA	3.17 z-score
TTAGGTTTCCTTATCCTCTAGTGCTAG	2.39 z-score
TTATGTCTCCTTCTCCTTTAGTGCTAG	2.2 z-score
TTAGGACTAGACACTGGGTTAGTGCTA	-0.652 z-score

Study 6
Target: RNA binding protein fox-1 homolog 2, RRM domain, GST-SBP tag (RBFOX2, Homo sapiens, UniProt O43251-10, residues 100-194)
Technique: RNA Bind-n-Seq
Form: RNA
Sample: in vitro
Tested at: 365 nM
Notes: natural RNA segment, single round, ends assumed
Relative to: no-protein control
Reading: higher = stronger binding
Constant ends, left off below: GGGAGUUCUACAGUCCGACGAUC … UGGAAUUCUCGGGUGCCAA
Residues (chain): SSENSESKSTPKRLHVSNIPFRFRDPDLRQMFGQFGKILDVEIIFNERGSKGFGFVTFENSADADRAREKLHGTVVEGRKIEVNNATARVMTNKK
Oligonucleotide	RBNS enrichment (R)
UGCAGCCUGAACUCCCUUGAGCAGCGCUAUAAGGGACUUUGCACUUUAAAAAGGGGAUGCCUGUCAGUAAAUCCCCUGUGCAUUGACUAGAACUGGGGGGCUGCGCCCGC	0.838
AUCACUUCUCUAAGUAAGGUUGAAAUAUCCUUAUUGUAGCUACUGUUUUUAAUGUAAAGGUUAAACUUGAAAAGAAAUUCUUAAUCACGGUGCCAAAAUUCAUUUUCUAA	0.664
GUGUGUUUUCCUCACACACUUUGAUUUGGAGAAUUGGUGCUAGUUGGCAAUAGAUAACUCAGCGUAGAUAGUAUUGCAAAAAGGGGAGGAAAUACACAACAAUAAUAAAU	0.825
AUAUUAAGCAGGUAUUAGAUUUAGGAAAACCUUUCCAUUUCUUAAAGUAUUAUCAAGUGUCAAGAUCAGCAAGUGUCCUUAAGUCAAACAGGUUUUUUUUGUUGUUGUUU	1.51
UGGAAUUUAAAAAUAUCGAUAUCACCAUGAUUUAAUCCAGAUCUGGGAUUAUGUAGCUAAACAUUGUGAUGAUUAUUAUUUAAAACCAUUAUUUAAUAAGAGUAAAAAUA	0.644
UAAUGUCUUGGAAAAAGACUCACAUGAAAAGUGGCUUUUAUAUUUGGUAGGAUAAAGCCAUUGUCCUUUAAUACCAUAGCAAAUAGAAGCAAUUUUUAAUGAGGUUACUG	0.297
AUGGCCCUGUAGCUCUGAAUGCUAUUUGUGUAACUGAAAGGUUGCACUCUAGGGUGAACCAAGCUAUAAAAGCCCAUGCUUAAAUAAAAAUUAUGUCCAAAAGCCAUUGA	0.398
CAACUGAUUUUGCUAAGCAGUCUUCCCCUUAUAACACCACAGGCCCUUCUGACACACAAAAAAAUGAAAGUUAAUCCUGGGUACAGCAUACAGUUUUACAUUUAAACGCA	0.795
UUUUUAAUCUCAAAAGAGAGAGAUGUGUUUAAUGGACACAAGCUGUAGUUCUCAGCAAAACUUUGUCAGUUGGCACUGUUUACAAGUCUGUUAGCUGCAUAAGCUCAAUA	0.278
CCUCUAGGAGGCAGCCCCUAGGAGCACGCACGUUCUGUCAGUAUUACCCCACCUGUCCUAUCAGGUGGGCCACACCCUGCUUGCCCACACCAGGGUCUGUCCUGGUCCUC	0.27
UGGGAAGAGGGCUCUGUAAGCCAGAACCUUACUAAAGUAGAGGGCACAAUCAGUGUGAAUAAAUUCACUUCAGAAUCUCAAGUCAAGGCCAGGCACGGCGGCUCACGCCU	0.79
UUUCAUUCCCAGAUCCUAAAAUGUUGAAAGAGUGGGAGAAGUUCCAAGAGGAAGCUAAAAACCGAGAUCAUAGGAAAAUUGGCAGGGACCAAGAACUAUAUUUCUUUCAU	0.384
